# Published values gathered from unrelated publications.
# Parts stem from different laboratories: compare values within a part only. Several values in a cell are separate wells, animals, samples, runs or records.
# Chain of UniProt P10721 (whole entry, unmodified, looked up): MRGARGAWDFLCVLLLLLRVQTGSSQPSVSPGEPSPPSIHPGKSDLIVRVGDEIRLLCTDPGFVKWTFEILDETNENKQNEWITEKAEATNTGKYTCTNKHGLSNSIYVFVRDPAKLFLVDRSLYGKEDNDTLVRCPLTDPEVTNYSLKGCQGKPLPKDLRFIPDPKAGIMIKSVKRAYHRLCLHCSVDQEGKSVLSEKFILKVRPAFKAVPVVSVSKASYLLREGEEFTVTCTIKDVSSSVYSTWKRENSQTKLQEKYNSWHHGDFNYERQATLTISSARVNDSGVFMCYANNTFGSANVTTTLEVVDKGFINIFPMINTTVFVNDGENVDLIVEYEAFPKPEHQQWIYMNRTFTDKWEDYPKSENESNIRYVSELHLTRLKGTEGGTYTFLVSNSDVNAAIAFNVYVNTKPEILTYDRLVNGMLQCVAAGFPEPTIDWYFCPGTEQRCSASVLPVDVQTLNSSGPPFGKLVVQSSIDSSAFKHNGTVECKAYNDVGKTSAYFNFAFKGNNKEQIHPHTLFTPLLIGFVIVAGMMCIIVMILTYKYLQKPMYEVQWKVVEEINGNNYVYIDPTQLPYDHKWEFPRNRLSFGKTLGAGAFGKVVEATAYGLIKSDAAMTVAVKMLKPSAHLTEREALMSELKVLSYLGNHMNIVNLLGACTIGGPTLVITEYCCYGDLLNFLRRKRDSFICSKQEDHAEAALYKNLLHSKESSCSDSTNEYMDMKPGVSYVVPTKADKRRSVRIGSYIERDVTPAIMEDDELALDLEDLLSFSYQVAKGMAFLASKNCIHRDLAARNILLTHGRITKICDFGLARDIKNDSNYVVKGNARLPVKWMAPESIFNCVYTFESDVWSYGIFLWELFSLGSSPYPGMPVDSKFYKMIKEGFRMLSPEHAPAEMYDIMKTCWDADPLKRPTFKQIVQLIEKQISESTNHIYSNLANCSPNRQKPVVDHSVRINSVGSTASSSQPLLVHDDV
# Chain of UniProt P00519 (whole entry, unmodified, looked up): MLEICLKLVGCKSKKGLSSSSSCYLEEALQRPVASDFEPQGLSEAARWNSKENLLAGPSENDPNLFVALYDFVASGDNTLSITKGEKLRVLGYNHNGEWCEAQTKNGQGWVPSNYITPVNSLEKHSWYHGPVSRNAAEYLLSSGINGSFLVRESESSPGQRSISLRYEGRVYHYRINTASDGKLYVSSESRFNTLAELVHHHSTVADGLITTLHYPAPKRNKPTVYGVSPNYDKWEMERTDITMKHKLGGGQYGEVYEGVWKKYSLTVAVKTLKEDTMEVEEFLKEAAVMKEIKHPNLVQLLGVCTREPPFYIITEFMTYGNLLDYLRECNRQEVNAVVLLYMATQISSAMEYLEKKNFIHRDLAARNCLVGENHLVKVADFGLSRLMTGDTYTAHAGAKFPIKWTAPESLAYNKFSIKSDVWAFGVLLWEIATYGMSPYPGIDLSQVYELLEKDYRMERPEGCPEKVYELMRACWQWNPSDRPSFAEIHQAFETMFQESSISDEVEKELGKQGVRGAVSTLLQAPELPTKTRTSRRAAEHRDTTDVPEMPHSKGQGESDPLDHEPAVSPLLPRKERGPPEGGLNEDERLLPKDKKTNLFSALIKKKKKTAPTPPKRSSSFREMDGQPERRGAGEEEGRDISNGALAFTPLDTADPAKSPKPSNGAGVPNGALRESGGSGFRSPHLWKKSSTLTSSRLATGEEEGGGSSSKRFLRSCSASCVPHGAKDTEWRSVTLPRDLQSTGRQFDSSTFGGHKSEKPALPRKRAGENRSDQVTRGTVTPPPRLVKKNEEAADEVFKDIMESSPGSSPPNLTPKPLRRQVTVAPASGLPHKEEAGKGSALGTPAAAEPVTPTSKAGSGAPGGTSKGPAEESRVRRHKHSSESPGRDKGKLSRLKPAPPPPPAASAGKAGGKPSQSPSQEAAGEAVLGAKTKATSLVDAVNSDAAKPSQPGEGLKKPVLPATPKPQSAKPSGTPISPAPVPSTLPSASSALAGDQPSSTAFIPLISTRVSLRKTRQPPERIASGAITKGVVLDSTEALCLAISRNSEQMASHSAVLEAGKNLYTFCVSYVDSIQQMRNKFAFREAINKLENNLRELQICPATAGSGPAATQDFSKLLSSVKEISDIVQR
# Chain of UniProt Q8IWQ3 (whole entry, looked up): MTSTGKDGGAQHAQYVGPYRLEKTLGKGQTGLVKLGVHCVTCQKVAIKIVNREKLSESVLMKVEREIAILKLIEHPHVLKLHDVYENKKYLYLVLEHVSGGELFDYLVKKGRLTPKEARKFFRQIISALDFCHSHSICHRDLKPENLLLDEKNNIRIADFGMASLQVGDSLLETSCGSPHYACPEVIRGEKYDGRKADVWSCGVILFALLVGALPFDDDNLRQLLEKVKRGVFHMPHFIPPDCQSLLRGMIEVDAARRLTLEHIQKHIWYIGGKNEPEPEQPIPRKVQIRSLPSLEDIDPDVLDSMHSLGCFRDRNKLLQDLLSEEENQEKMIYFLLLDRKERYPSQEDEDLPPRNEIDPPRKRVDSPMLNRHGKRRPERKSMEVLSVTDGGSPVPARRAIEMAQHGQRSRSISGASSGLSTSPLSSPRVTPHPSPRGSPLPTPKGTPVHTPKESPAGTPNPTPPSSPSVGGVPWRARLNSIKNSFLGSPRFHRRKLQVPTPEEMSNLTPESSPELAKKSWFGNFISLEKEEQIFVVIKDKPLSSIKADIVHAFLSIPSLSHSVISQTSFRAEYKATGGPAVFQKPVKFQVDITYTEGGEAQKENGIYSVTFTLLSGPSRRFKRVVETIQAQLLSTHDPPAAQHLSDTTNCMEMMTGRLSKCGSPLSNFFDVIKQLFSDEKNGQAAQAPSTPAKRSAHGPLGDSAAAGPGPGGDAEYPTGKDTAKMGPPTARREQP

# Sample 1 — observed: enzyme activity; action: inhibitor; tested at: 10 µM
# Target: Calcium/calmodulin-dependent protein kinase type II subunit alpha (CAMK2A, Homo sapiens, UniProt Q9UQM7)
# Chain of UniProt Q9UQM7 (whole entry, looked up): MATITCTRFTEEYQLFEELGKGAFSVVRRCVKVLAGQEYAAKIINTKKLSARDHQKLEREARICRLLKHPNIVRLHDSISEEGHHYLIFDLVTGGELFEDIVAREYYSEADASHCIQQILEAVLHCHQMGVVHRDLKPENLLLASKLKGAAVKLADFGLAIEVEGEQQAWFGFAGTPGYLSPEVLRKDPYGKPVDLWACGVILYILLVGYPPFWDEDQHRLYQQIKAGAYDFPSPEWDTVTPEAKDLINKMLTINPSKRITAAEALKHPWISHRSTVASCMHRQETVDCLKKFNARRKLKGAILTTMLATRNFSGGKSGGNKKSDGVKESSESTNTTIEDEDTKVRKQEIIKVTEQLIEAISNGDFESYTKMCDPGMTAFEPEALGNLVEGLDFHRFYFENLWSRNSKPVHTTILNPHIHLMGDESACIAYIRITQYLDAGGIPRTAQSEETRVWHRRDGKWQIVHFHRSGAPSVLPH
Structure (SMILES),inhibition
CCCCCC(=O)O[C@]1(C(C)=O)CC[C@H]2[C@@H]3CCC4=CC(=O)CC[C@]4(C)[C@H]3CC[C@@]21C,0%
CCCCCCC/C=C\C(=O)O,-7%
CC(=O)/N=c1/sc(S(N)(=O)=O)nn1C,-4%
OC/C=C/c1ccccc1,-29%
O=c1c(O)c(-c2ccc(O)c(O)c2)oc2cc(O)c(O)c(O)c12,-93%
COC(=O)C[C@H]1[C@]2(C)C3=C(C)[C@H](c4ccoc4)C[C@H]3O[C@@H]2[C@@H]2OC(=O)[C@]3(C)C=CC(=O)[C@@]1(C)[C@@H]23,-21%
Cc1cc(/C=C/C#N)cc(C)c1Nc1ccnc(Nc2ccc(C#N)cc2)n1,-14%
C[C@@H]1CC[C@@H]2O[C@@]23C(=O)C(=O)[C@@H]2[C@@H](C2(C)C)[C@@]13C,-3%
CC1(C)O[C@H]2CC(=O)OC[C@@]23[C@H]1CC(=O)[C@@]1(C)C2=CC(=O)O[C@@H](c4ccoc4)[C@]2(C)CC[C@@H]13,-6%
OCCc1ccc(O)c(O)c1,-15%
O=c1ccc2cc(O)c(O)cc2o1,-26%
CC[C@H](C)[C@H](N)C1=N[C@H](C(=O)N[C@@H](CC(C)C)C(=O)N[C@H](CCC(=O)O)C(=O)N[C@H](C(=O)N[C@H]2CCCCNC(=O)[C@H](CC(N)=O)NC(=O)[C@@H](CC(=O)O)NC(=O)[C@H](Cc3cnc[nH]3)NC(=O)[C@@H](Cc3ccccc3)NC(=O)[C@H]([C@@H](C)CC)NC(=O)[C@@H](CCCN)NC2=O)[C@@H](C)CC)CS1,3%
CC(C)(C)NC[C@H](O)c1ccc(O)c(CO)c1,1%
C=C[C@H](O)CC(=NOS(=O)(=O)O)S[C@@H]1O[C@H](CO)[C@@H](O)[C@H](O)[C@H]1O,-14%
Nc1c(O)cccc1C(=O)O,-2%
CCCCCCCCCCCCCCCCOP(=O)([O-])OCC[N+](C)(C)C,-3%
CCNC(=O)CC[C@H](N)C(=O)O,7%
C=C(C)[C@@H]1CC[C@]2(C)CC[C@]3(C)[C@H](CC[C@@H]4[C@@]5(C)CCC(=O)C(C)(C)[C@@H]5CC[C@]43C)[C@@H]12,3%
C=C(C)[C@@H]1CC[C@]2(C)CC[C@]3(C)[C@H](CC[C@@H]4[C@@]5(C)CC[C@H](O)C(C)(C)[C@@H]5CC[C@]43C)[C@@H]12,-28%
CC(=O)Oc1ccccc1C(=O)O,-0.06% and -0.03%
O=c1cc(-c2ccc(O)cc2)oc2c([C@@H]3OC[C@@H](O)[C@H](O)[C@H]3O)c(O)c([C@@H]3O[C@H](CO)[C@@H](O)[C@H](O)[C@H]3O)c(O)c12,-30%
CC(=O)NCCCC[C@H](N)C(=O)O,9%
Cn1nnc2c(C(N)=O)ncn2c1=O,5%

# Sample 2 — observed: enzyme activity; action: inhibitor; tested at: 0.5 µM; baseline: control
# Target: Platelet-derived growth factor receptor alpha (PDGFRA, Homo sapiens, UniProt P16234)
# Chain of UniProt P16234 (whole entry, looked up): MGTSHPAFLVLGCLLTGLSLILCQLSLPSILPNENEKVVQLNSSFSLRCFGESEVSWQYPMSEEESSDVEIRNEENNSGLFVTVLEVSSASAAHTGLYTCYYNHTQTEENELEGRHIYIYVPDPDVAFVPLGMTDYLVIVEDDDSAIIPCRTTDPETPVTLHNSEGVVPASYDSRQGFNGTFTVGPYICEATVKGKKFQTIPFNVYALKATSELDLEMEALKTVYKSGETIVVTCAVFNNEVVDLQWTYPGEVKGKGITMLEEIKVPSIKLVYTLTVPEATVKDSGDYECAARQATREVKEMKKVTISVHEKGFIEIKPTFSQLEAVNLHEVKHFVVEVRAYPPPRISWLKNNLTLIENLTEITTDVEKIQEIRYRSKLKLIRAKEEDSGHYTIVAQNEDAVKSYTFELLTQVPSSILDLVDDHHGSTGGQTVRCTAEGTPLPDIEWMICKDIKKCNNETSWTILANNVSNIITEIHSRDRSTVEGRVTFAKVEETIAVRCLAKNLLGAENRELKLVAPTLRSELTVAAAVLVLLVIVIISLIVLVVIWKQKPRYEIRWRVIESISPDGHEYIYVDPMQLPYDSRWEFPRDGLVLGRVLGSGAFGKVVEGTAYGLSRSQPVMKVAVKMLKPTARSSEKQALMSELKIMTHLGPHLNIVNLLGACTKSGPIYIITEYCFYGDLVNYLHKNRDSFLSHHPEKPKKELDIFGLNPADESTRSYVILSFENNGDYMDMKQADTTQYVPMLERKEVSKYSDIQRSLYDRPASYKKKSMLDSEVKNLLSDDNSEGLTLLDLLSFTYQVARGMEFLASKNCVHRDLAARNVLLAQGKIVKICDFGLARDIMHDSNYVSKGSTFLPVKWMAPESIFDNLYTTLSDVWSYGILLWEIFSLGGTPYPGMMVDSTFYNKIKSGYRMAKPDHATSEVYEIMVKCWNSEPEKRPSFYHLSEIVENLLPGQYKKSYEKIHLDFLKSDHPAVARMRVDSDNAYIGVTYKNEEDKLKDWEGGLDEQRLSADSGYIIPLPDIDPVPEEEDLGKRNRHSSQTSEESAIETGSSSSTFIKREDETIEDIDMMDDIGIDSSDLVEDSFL
SMILES,remaining activity
CN([C@@H](Cc1ccc(OS(=O)(=O)c2cccc3cnccc23)cc1)C(=O)N1CCN(c2ccccc2)CC1)S(=O)(=O)c1cccc2cnccc12,99.6%
COc1cc2ncnc(Nc3ccc(O)c(Br)c3)c2cc1OC,88.9%
COc1cc2ncnc(Nc3cccc(Cl)c3)c2cc1OC,93.3%
O=C(NC(NC(=S)Nc1ccc(F)c([N+](=O)[O-])c1)C(Cl)(Cl)Cl)C(c1ccccc1)c1ccccc1 (stereo not shown),100%
CCN(CC)C(=O)c1ccc(Nc2nc(OCC3CCCCC3)c3[nH]cnc3n2)cc1,66.6%
O=C(Nc1cccc(Nc2nccc(Nc3cccc(C(F)(F)F)c3)n2)c1)C1CC1,89.3%
CCN(CC)CCNC(=O)c1c(C)[nH]c(/C=C2\C(=O)Nc3ccc(Cl)cc32)c1C,25.9%
C[C@@H]1CCN(C(=O)CC#N)C[C@@H]1N(C)c1ncnc2[nH]ccc12,104%
CN(C)C[C@H]1CCn2c(c(C3=C(c4cn(C)c5ccccc45)C(=O)NC3=O)c3ccccc32)C1,93.1%
O=c1cc(-c2cccc3c2Sc2ccccc2S3)oc(N2CCOCC2)c1,102%
Cc1cn(-c2cc(NC(=O)c3ccc(C)c(Nc4nccc(-c5cccnc5)n4)c3)cc(C(F)(F)F)c2)cn1,18.1%
O=C1c2ccccc2-c2n[nH]c3cccc1c23,101%
CCOc1nc(NC(=O)Cc2cc(OC)ccc2OC)cc(N)c1C#N,97.1%
Cc1nc2cc3nc(-c4cccs4)cnc3cc2n1C,23.8%
N#C/C(=C\c1ccc(O)c(O)c1)C(=O)NCc1ccccc1,110%
COc1cc2c(cc1OC)-c1[nH]nc(Nc3cccc(F)c3)c1C2,33.4%
N#Cc1c(NC(=O)c2cccc3ccccc23)sc2c1CCCC2,101%
O=C1C(Cl)=C(N2C(=O)CCC2=O)C(=O)c2ccccc21,109%
Ic1cccc(CSc2nnc(-c3ccncc3)o2)c1,90.1%
c1ccc(-c2cnc(Nc3ccc(OCCN4CCCC4)cc3)s2)cc1,57.4%
Nc1cccc(-c2cc3c(Oc4cccc(O)c4)ncnc3[nH]2)c1,73.6%
Cn1nc2c3c(cccc31)C(=O)c1ccccc1-2,97.6%
Cc1cc2ncc(-c3ccccc3)nc2cc1C,95.4%
c1ccc(-c2[nH]ncc2-c2ccnc3ccccc23)nc1,98.1%

# Sample 3 — tested at: 1 µM
# Compound: Cc1nc(N2CC[C@@H](O)C2)ncc1-c1cc(C(F)(F)F)cc2[nH]ncc12
target,observed,technique,remaining binding [%]
"Tyrosine-protein kinase ABL1, non-phosphorylated (ABL1, Homo sapiens, UniProt P00519, F317I)",binding,competition with immobilised ligand,73
"Serine/threonine-protein kinase Nek2 (NEK2, Homo sapiens, UniProt P51955)",binding,competition with immobilised ligand,92
"Serine/threonine-protein kinase RIO3 (RIOK3, Homo sapiens, UniProt O14730)",binding,competition with immobilised ligand,100
"NT-3 growth factor receptor (NTRK3, Homo sapiens, UniProt Q16288)",cell-free assay,competition with immobilised ligand,66
"Non-receptor tyrosine-protein kinase TNK1 (TNK1, Homo sapiens, UniProt Q13470)",binding,competition with immobilised ligand,100
"Tyrosine-protein kinase Lck (LCK, Homo sapiens, UniProt P06239)",binding,competition with immobilised ligand,100
"Phosphatidylinositol 4,5-bisphosphate 3-kinase catalytic subunit alpha isoform (PIK3CA, Homo sapiens, UniProt P42336, I800L)",cell-free assay,competition with immobilised ligand,66
"Ribosomal protein S6 kinase alpha-2, N-terminal kinase domain (RPS6KA2, Homo sapiens, UniProt Q15349)",binding,competition with immobilised ligand,100
"Calcium/calmodulin-dependent protein kinase type 1G (CAMK1G, Homo sapiens, UniProt Q96NX5)",cell-free assay,competition with immobilised ligand,100
"Inhibitor of nuclear factor kappa-B kinase subunit epsilon (IKBKE, Homo sapiens, UniProt Q14164)",binding,competition with immobilised ligand,89
"Transient receptor potential cation channel subfamily M member 6 (TRPM6, Homo sapiens, UniProt Q9BX84)",cell-free assay,competition with immobilised ligand,52
"Serine/threonine-protein kinase BRSK2 (BRSK2, Homo sapiens, UniProt Q8IWQ3)",binding,competition with immobilised ligand,90
"Tyrosine-protein kinase Fgr (FGR, Homo sapiens, UniProt P09769)",cell-free assay,competition with immobilised ligand,100
"Serine/threonine-protein kinase tousled-like 2 (TLK2, Homo sapiens, UniProt Q86UE8)",cell-free assay,competition with immobilised ligand,100
"Tyrosine-protein kinase ABL1, phosphorylated (ABL1, Homo sapiens, UniProt P00519, F317L)",binding,competition with immobilised ligand,58
"Serine/threonine-protein kinase MRCK gamma (CDC42BPG, Homo sapiens, UniProt Q6DT37)",,competition binding,100
"Cyclin-dependent kinase 7 (CDK7, Homo sapiens, UniProt P50613)",binding,competition with immobilised ligand,68
"Receptor-type tyrosine-protein kinase FLT3 (FLT3, Homo sapiens, UniProt P36888, N841I)",binding,competition with immobilised ligand,88
"Mast/stem cell growth factor receptor Kit (KIT, Homo sapiens, UniProt P10721, V559D)",cell-free assay,competition with immobilised ligand,58
"Calcium/calmodulin-dependent protein kinase type 1D (CAMK1D, Homo sapiens, UniProt Q8IU85)",cell-free assay,competition with immobilised ligand,100
"Ribosomal protein S6 kinase alpha-4, N-terminal kinase domain (RPS6KA4, Homo sapiens, UniProt O75676)",binding,competition with immobilised ligand,84
"Fibroblast growth factor receptor 3 (FGFR3, Homo sapiens, UniProt P22607)",cell-free assay,competition with immobilised ligand,100
"Dual serine/threonine and tyrosine protein kinase (DSTYK, Homo sapiens, UniProt Q6XUX3)",binding,competition with immobilised ligand,88
"Serine/threonine-protein kinase Chk1 (CHEK1, Homo sapiens, UniProt O14757)",binding,competition with immobilised ligand,100
"Mast/stem cell growth factor receptor Kit, autoinhibited (KIT, Homo sapiens, UniProt P10721)",cell-free assay,competition with immobilised ligand,89

# Sample 4 — observed: transporter uptake; action: inhibitor
# Target: Synaptic vesicular amine transporter (SLC18A2, Homo sapiens, UniProt Q05940)
# Chain of UniProt Q05940 (whole entry, looked up): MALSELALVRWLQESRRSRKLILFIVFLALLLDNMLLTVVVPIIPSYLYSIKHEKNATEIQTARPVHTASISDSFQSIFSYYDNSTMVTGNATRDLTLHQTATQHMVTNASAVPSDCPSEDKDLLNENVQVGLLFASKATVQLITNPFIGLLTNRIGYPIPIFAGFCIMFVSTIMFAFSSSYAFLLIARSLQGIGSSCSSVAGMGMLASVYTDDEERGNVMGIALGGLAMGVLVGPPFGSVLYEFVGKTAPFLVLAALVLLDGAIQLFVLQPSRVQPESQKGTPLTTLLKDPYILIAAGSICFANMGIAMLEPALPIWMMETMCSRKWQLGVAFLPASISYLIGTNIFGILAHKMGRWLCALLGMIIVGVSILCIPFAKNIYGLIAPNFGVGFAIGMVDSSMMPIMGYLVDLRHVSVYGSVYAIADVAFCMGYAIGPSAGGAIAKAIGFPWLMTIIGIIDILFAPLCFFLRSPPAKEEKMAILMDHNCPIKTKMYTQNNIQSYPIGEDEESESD
Compound,IC50 [nM]
COc1ccc(CCN2CCC(Nc3nc4ccccc4n3Cc3ccc(F)cc3)CC2)cc1,107
COc1cc(N)c(Cl)cc1C(=O)NC1CCN(CCCOc2ccc(F)cc2)CC1OC (stereo not shown),7060
CCCSc1nc(N[C@@H]2C[C@H]2c2ccc(F)c(F)c2)c2nnn([C@@H]3C[C@H](OCCO)[C@@H](O)[C@H]3O)c2n1,1270
O=C(c1ccc(F)c(F)c1Nc1ccc(I)cc1F)N1CC(O)([C@@H]2CCCCN2)C1,3530
CC(C)(C)c1ccc(C(O)CCCN2CCC(C(O)(c3ccccc3)c3ccccc3)CC2)cc1 (stereo not shown),2020
N#Cc1ccc2[nH]cc(CCCCN3CCN(c4ccc5oc(C(N)=O)cc5c4)CC3)c2c1,69
COc1cc2nc(N3CCN(C(=O)C4CCCO4)CC3)nc(N)c2cc1OC (stereo not shown),313
C[C@]12CC[C@H](O)CC1=CC[C@@H]1[C@@H]2CC[C@]2(C)C(c3cccnc3)=CC[C@@H]12,4970
CC(C)c1nc(CN(C)C(=O)N[C@@H](CCN2CCOCC2)C(=O)N[C@H](CC[C@H](Cc2ccccc2)NC(=O)OCc2cncs2)Cc2ccccc2)cs1,5100
Cc1cc(Nc2ncc(Cl)c(Nc3ccccc3S(=O)(=O)C(C)C)n2)c(OC(C)C)cc1C1CCNCC1,1000

# For quick reference, copied from above (sample 3):
target,observed,technique,remaining binding [%]
"Inhibitor of nuclear factor kappa-B kinase subunit epsilon (IKBKE, Homo sapiens, UniProt Q14164)",binding,competition with immobilised ligand,89
"Transient receptor potential cation channel subfamily M member 6 (TRPM6, Homo sapiens, UniProt Q9BX84)",cell-free assay,competition with immobilised ligand,52
"Serine/threonine-protein kinase BRSK2 (BRSK2, Homo sapiens, UniProt Q8IWQ3)",binding,competition with immobilised ligand,90
"Tyrosine-protein kinase Fgr (FGR, Homo sapiens, UniProt P09769)",cell-free assay,competition with immobilised ligand,100
"Serine/threonine-protein kinase tousled-like 2 (TLK2, Homo sapiens, UniProt Q86UE8)",cell-free assay,competition with immobilised ligand,100
